Measured values of several laboratories.
Lines come from different studies, so protocols differ. Numbers after ± are the reported error.
Chain of UniProt P02769 (whole entry, looked up): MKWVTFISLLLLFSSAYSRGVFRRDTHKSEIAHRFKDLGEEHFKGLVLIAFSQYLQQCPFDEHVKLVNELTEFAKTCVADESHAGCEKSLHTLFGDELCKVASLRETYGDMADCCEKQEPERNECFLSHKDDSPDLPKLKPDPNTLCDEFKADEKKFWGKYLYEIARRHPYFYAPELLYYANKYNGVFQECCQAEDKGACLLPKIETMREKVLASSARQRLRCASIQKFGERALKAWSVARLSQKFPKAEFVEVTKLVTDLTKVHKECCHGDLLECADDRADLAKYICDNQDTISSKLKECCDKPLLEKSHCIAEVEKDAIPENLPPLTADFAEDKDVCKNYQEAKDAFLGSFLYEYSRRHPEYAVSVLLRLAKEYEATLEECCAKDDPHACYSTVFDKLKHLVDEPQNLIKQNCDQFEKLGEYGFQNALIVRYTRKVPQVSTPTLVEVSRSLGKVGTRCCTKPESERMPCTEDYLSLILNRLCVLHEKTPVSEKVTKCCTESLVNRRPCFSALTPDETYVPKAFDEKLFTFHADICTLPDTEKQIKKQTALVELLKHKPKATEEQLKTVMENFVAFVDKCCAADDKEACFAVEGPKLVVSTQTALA
Chain of UniProt Q86X55 (whole entry, looked up): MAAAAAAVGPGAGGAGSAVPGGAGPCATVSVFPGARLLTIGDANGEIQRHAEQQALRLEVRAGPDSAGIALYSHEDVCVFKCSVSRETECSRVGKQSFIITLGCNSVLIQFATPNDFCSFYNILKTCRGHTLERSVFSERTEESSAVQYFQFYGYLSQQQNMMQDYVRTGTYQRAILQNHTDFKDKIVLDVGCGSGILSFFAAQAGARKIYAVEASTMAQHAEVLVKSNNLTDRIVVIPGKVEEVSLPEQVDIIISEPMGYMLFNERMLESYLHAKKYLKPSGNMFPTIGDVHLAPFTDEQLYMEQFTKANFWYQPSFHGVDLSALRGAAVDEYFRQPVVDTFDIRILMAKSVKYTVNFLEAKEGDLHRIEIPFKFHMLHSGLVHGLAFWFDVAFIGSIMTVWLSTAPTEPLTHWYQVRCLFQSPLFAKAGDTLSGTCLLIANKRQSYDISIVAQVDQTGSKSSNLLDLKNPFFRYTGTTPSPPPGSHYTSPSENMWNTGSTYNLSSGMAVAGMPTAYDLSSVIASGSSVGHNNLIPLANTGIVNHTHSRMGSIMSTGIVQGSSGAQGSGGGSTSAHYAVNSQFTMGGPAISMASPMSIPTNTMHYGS
Chain of UniProt P00441 (whole entry, unmodified, looked up): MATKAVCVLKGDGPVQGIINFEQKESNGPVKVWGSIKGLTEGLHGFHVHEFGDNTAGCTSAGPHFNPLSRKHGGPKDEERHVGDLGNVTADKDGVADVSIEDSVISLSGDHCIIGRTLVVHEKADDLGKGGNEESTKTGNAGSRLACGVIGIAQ
Chain of UniProt P46091 (whole entry, looked up): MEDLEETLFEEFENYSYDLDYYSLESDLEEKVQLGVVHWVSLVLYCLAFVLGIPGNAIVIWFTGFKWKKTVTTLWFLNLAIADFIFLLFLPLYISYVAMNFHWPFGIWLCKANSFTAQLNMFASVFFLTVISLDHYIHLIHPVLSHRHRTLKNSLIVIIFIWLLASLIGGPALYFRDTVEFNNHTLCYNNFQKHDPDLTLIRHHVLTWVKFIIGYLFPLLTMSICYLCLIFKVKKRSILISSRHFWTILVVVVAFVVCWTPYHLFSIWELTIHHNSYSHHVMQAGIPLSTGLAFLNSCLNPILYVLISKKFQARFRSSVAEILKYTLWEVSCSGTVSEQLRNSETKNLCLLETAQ

| SMILES | target or system | test | system | setting | scale | quantity | result |
| --- | --- | --- | --- | --- | --- | --- | --- |
| C[C@@H]1CCN(C(=O)CCl)[C@@H](C(N)=O)C1 | human NEDD9 full length | LC-MS peptide mapping, measured: Cys18 |  | 50 µM, 18 h |  | cysteine occupancy | 58.3% |
| CC(C)C[C@@H]1NC(=O)CNC(=O)[C@H](CC(C)C)NC(=O)[C@@H]2CCCN2C(=O)[C@H](CC(=O)O)NC(=O)[C@H](Cc2ccc(O)cc2)NC(=O)CNC(=O)[C@@H](Cc2ccc(O)cc2)NC(=O)CSC[C@@H](C(N)=O)NC(=O)[C@H](C)NC(=O)[C@H](Cc2ccccc2)NC(=O)[C@H](Cc2ccc(O)cc2)NC(=O)[C@H](CCCCN)NC1=O | Vacuolar protein sorting-associated protein 29 (VPS29, Homo sapiens, UniProt Q9UBQ0) | binding, ITC |  | 25 °C, protein alone |  | ΔH | -17.4 ± 1.4 kcal/mol |
| NCC[C@H](O)C(=O)N[C@@H]1C[C@H](N)[C@@H](O[C@H]2O[C@H](CN)[C@@H](O)[C@H](O)[C@H]2O)[C@H](O)[C@H]1O[C@H]1O[C@H](CO)[C@@H](O)[C@H](N)[C@H]1O | Albumin (ALB, Bos taurus, UniProt P02769) | tryptophan fluorescence quenching |  | 10 to 60 µM, 283 K |  | Stern-Volmer quenching constant | 3.96 10³ M⁻¹ |
| CCN1CCC[C@H]1CNC(=O)c1c(O)c(Cl)cc(Cl)c1OC | Chemerin-like receptor 2 (CMKLR2, Homo sapiens, UniProt P46091) | β-arrestin recruitment, TANGO luminescence, measured: GPR1 |  | concentration not given | baseline: basal luminescence | log2 fold change | 0.051 |
| O=C(CC1CCOCC1)Nc1ccc(C2CCCCC2)cc1 |  |  | cryopreserved human hepatocytes | 1 µM |  | hepatic clearance | 18 mL/min/kg |
| CC[C@H](C)[C@H](NC(=O)[C@H](Cc1ccccc1)NC(=O)[C@H](CCC(=O)O)NC(=O)[C@H](CCCNC(=N)N)NC(=O)[C@H](C)NC(=O)[C@H](C)NC(=O)[C@H](CCC(N)=O)NC(=O)[C@H](CCC(=O)O)NC(=O)[C@H](CCC(=O)O)NC(=O)[C@H](CC(C)C)NC(=O)[C@H](Cc1ccc(O)cc1)NC(=O)[C@H](CO)NC(=O)[C@H](CO)NC(=O)[C@@H](NC(=O)[C@H](CC(=O)O)NC(=O)[C@H](CO)NC(=O)[C@@H](NC(=O)[C@H](Cc1ccccc1)NC(=O)[C@@H](NC(=O)CNC(=O)[C@H](CCC(=O)O)NC(=O)[C@H](C)NC(=O)CCc1cnc[nH]1)[C@@H](C)O)[C@@H](C)O)C(C)C)C(=O)N[C@@H](C)C(=O)N[C@@H](Cc1c[nH]c2ccccc12)C(=O)N[C@@H](CC(C)C)C(=O)N[C@H](C(=O)N[C@@H](CCCCNc1c(NCCCCCN(O)C(=O)CCC(=O)NCCCCCN(O)C(=O)CCC(=O)NCCCCCN(O)C(C)=O)c(=O)c1=O)C(=O)NCC(=O)N[C@@H](CCCNC(=N)N)C(=O)N[C@@H](CCCCNC(=O)COCCOCCNC(=O)COCCOCCNC(=O)CC[C@H](NC(=O)CCCCCCCCCCCCCCCCC(=O)O)C(=O)O)C(=O)NCC(=O)NCC(=O)N[C@@H](CO)C(=O)N[C@@H](CCCCNc1c(NCCCCCN(O)C(=O)CCC(=O)NCCCCCN(O)C(=O)CCC(=O)NCCCCCN(O)C(C)=O)c(=O)c1=O)C(=O)O)C(C)C | Glucagon-like peptide 1 receptor (GLP1R, Homo sapiens, UniProt P43220) | agonist, CRE luciferase reporter | BHK cells | Zr-loaded DFO conjugate, added: 0% HSA | baseline: parent peptide | fold potency loss | 4.2 |
| O=C(OCc1ccccc1)c1ccc(O)cc1 | Histone-arginine methyltransferase CARM1 (CARM1, Homo sapiens, UniProt Q86X55) | reporter gene, inhibitor | HEK293 |  |  | effective concentration | 160 µM |
| COc1cc(Nc2ncc3c(n2)-c2ccc(Cl)cc2C(c2c(F)cccc2OC)=NC3)ccc1C(=O)O | ABL1 Y253F | kinase activity |  | 1 µM |  | remaining activity | 36% |
| [O-][S+]1CCCCS1 (stereo not drawn) | Superoxide dismutase [Cu-Zn] (SOD1, Homo sapiens, UniProt P00441, G94A) | intact protein LC-MS | SOD1 G93A transgenic mice, whole blood | oral, 150 mg/kg, 8 h, mean of two mice |  | target engagement | 50.8 % cross-linked dimer |
| O=C(COCC(F)F)Nc1ccc(C2CCCCC2)cc1 |  | hepatocyte stability | cryopreserved mouse hepatocytes | 1 µM |  | hepatic clearance | 84 mL/min/kg |
| C=CC(=O)N1C/C(=C\c2ccc([N+](=O)[O-])cc2)C(=O)/C(=C/c2ccc([N+](=O)[O-])cc2)C1 | NanoBiT HiBiT/LgBiT luciferase | inhibitor, HiBiT luminescence counterscreen | conditioned medium only | 1.66 µM, 24 h | baseline: vehicle | luminescence signal reduction | -5.24% |
| c1ccc(C(NCc2cccnc2)(c2ccccc2)c2ccccc2)cc1 | Potassium voltage-gated channel subfamily KQT member 1 (KCNQ1, Homo sapiens, UniProt P51787, E160R/R231E) | concentration-response, tail currents |  |  |  | Hill coefficient | 1.01 |

Repeated from above:
| SMILES | target or system | test | system | setting | scale | quantity | result |
| --- | --- | --- | --- | --- | --- | --- | --- |
| COc1cc(Nc2ncc3c(n2)-c2ccc(Cl)cc2C(c2c(F)cccc2OC)=NC3)ccc1C(=O)O | ABL1 Y253F | kinase activity |  | 1 µM |  | remaining activity | 36% |
